Measurements gathered from unrelated publications.

With `Cc1ccc2c(c1)nc(NC(=O)c1cccc(C(F)(F)F)c1)n2[C@H]1CC[C@H](N)CC1` the intrinsic clearance was 42.5 µL/min/mg (mouse liver microsomes; mean value).
`C/C(=N\OCCN1CCCC1)c1ccc(C(F)(F)F)cc1` has an intrinsic clearance of 50.5 mL/min/kg (human liver microsomes; 1 µM, 45 min).
The intrinsic clearance of `[2H]C1([2H])C[C@@H](C[C@@H](C#N)NC(=O)[C@@H]2[C@@H]3[C@H](CN2C(=O)[C@@H](NC(=O)C(F)(F)F)C(C)(C)C)C3(C)C)C(=O)N1` is reported as 89.5 µL/min/mg (mouse liver microsomes; microsomes 0.5 mg/mL).
`O=C(Nc1cccc(C(=O)N2CCC(c3nc(-c4ccccc4)n[nH]3)CC2)c1)c1ccccc1` has an intrinsic clearance of 595 mL/min/kg (human liver microsomes; pH 7.4, together with: NADPH).
For `CC(C)(C)[C@H](NC(=O)C(F)F)C(=O)N1C[C@H]2[C@@H]([C@H]1C(=O)N[C@H](C#N)C[C@@H]1CCCNC1=O)C2(C)C`, the intrinsic clearance was 30.5 µL/min/mg (human liver microsomes; microsomes 0.5 mg/mL).
The intrinsic clearance of `CCOC(=O)C12CC(N)(C1)C2` is reported as 140 µL/min/mg (human liver microsomes).
With `CNC(=O)C1CCCN(C(=O)C2CC3CCC2N3C(=O)[C@@H]2C[C@@H](O)CN2C(=O)NCc2cccc(Cl)c2F)C1` (mixture of isomers) the intrinsic clearance was 26.1 µL/min/mg (human liver microsomes).
The intrinsic clearance of `O=S(=O)(N[C@H]1CCO[C@@H](C2c3ccc(F)cc3CCc3cc(F)ccc32)C1)c1ccc(OC(F)(F)F)cc1` is reported as 145 µL/min/mg (liver microsomes; 10 µM).
With `O=C(O)Cc1ccccc1Nc1c(Cl)cccc1Cl` the intrinsic clearance was 127 µL/min/mg (human liver microsomes; 1 nM).
`CSCc1cn(-c2cccc(C(=O)N3CCC(c4nc(-c5ccccc5)n[nH]4)CC3)c2)nn1` gave an intrinsic clearance of 410 mL/min/kg (human liver microsomes; pH 7.4, together with: NADPH).
For `O=S(=O)(N[C@H]1CCO[C@@H](C2c3ccccc3CCc3ccccc32)C1)c1ccc(OC(F)(F)F)cc1`, the intrinsic clearance was 269 µL/min/mg (liver microsomes; 10 µM).

A few entries again:
For `CC(C)(C)[C@H](NC(=O)C(F)F)C(=O)N1C[C@H]2[C@@H]([C@H]1C(=O)N[C@H](C#N)C[C@@H]1CCCNC1=O)C2(C)C`, the intrinsic clearance was 30.5 µL/min/mg (human liver microsomes; microsomes 0.5 mg/mL).
